# Results of several laboratories.
# Protocols differ between the studies behind these lines. ± gives the spread as reported.
SMILES,test,system,setting,plasma concentration
[2H]C([2H])([2H])C(c1cc2nnc(-c3cc(F)ccc3F)n2nc1OCc1ncnn1C)(C([2H])([2H])[2H])C([2H])([2H])[2H],,"CF-1 mouse, plasma","intraperitoneal, 30 to 300 mg/kg, 0.25 h, effective in 6 Hz seizure test",100 to 1000 ng/mL
COc1cc(CNC(=O)CCCC/C=C/C(C)C)ccc1N,,C57BL/6 mouse,"oral, 0.4 mg/kg, below quantitation limit",< 1 ng/mL
Cc1cc(C)c(-c2[nH]nc(C)c2C)cc1C(=O)N1CC(c2ccc(C#N)cc2)C1,mass spectrometry,"mouse, Calu-6 xenograft, plasma","oral, 60 mg/kg, 6 h after last dose",6800 ng/mL
Cc1nc(NC(=O)N2CCC[C@H]2C(N)=O)sc1-c1csc(C(C)(C)C)n1,,"mouse SK-OV-3 xenograft, plasma","intraperitoneal, 100 mg/kg single, 1 h",21.1 ± 1.2 µM
COc1ccc2nc(NC(=O)c3ccc(C(N)c4ccccc4)cc3)sc2c1 (centres unmarked),,"CD-1 mouse female, plasma","intraperitoneal, 25 mg/kg, first six hours",> 0.3 µM
CCC1CC2C(C)=CC3C(=O)CCCC3C=CC(C)=CC2C(=O)O1 (centres unmarked),,"ICR mouse male, plasma","intravenous, 2 mg/kg, 30 min",8.4 ± 1.3 ng/mL
Cn1cnnc1Sc1c2c(c(C#N)c3nc4ccccc4n13)CCCC2,,"C57BL/6 mouse, plasma","intravenous, 0.3 µg/g, 5 min",55.5 ng/mL
Cc1cc2c(c(=O)o1)C=C1CCC(C(C)CNCc3ccc(O)cc3)CC1O2 (centres unmarked),HPLC-MS,mouse,"iv, 25 mg/kg, 5 min",14.7 µM
CC(C)=CCC[C@](C)(O)[C@H]1CC[C@]2(C)[C@@H]1[C@H](O)C[C@@H]1[C@@]3(C)CC[C@H](O)C(C)(C)[C@@H]3CC[C@]12C,,"hairless mouse, male, plasma","topical, 25 mg/kg, 3 h",< 2 ng/mL
CCC1C=CC2CCN(C(=O)C3CCC4C=CC5(CCCN5C(=O)C(Cc5ccccc5Cl)NC(C)=O)C(=O)N43)C2C(=O)N1CC(=O)OC (centres unmarked),,"female NMRI nu/nu mouse, plasma","subcutaneous osmotic pump, 200 mg/kg/day, 48 h",1 µM
CSc1cc(C)[nH]c(=O)c1CN1CCc2c(Cl)c3c(c(C)c2C1=O)OC(C)(C1CCC(N(C)C)CC1)O3 (centres unmarked),,"mouse, plasma","oral, 10 or 25 mg/kg once daily, 24 h post dose",not detected

# A few entries again:
SMILES,test,system,setting,plasma concentration
Cn1cnnc1Sc1c2c(c(C#N)c3nc4ccccc4n13)CCCC2,,"C57BL/6 mouse, plasma","intravenous, 0.3 µg/g, 5 min",55.5 ng/mL
CCC1C=CC2CCN(C(=O)C3CCC4C=CC5(CCCN5C(=O)C(Cc5ccccc5Cl)NC(C)=O)C(=O)N43)C2C(=O)N1CC(=O)OC (centres unmarked),,"female NMRI nu/nu mouse, plasma","subcutaneous osmotic pump, 200 mg/kg/day, 48 h",1 µM
